Results pooled from the literature.
Every numbered part comes from another study and shows a few of its results, in no order. Several values in a cell are separate wells, animals, samples, runs or records.
UniProt Q15418, sequence (whole entry, looked up): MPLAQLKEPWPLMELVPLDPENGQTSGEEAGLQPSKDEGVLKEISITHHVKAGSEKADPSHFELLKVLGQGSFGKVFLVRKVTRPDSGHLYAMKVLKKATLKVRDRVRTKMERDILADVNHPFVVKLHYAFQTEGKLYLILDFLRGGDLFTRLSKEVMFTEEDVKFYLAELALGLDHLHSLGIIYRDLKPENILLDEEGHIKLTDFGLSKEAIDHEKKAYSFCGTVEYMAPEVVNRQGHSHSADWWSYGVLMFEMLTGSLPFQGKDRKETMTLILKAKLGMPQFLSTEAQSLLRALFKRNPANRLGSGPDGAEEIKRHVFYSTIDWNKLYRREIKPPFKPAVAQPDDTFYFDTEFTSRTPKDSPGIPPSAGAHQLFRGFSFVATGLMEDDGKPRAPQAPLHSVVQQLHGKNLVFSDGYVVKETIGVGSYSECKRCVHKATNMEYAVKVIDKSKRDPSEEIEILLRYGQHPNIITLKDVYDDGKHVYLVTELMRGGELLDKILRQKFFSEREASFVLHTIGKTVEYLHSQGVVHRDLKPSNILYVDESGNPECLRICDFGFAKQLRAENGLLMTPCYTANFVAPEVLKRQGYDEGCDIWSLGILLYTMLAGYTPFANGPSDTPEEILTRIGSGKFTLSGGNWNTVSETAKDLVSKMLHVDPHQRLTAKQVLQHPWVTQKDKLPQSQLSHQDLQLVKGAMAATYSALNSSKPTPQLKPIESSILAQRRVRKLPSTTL
UniProt Q15139, sequence (whole entry, looked up): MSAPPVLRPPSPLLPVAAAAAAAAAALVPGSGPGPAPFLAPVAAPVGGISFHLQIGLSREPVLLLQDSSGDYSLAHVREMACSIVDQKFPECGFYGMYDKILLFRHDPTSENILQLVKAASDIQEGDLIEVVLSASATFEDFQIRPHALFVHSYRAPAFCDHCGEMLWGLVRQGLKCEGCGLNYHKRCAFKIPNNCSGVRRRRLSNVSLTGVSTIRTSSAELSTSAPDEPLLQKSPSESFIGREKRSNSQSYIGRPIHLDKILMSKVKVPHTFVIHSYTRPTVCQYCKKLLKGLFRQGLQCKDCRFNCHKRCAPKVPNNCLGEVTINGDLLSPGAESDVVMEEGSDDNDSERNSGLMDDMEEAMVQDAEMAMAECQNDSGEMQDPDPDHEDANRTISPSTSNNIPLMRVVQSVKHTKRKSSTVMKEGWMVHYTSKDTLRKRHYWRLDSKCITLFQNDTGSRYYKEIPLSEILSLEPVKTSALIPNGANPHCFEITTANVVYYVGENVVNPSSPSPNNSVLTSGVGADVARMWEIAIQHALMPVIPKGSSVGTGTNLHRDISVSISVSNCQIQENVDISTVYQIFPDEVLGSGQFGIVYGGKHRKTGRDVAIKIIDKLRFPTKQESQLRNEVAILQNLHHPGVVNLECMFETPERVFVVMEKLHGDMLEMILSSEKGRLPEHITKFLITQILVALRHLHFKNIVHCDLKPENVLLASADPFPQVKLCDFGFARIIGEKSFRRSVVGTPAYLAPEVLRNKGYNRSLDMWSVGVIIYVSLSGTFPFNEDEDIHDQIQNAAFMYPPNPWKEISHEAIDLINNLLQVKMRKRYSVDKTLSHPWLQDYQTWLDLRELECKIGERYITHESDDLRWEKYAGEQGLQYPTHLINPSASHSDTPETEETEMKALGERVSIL
UniProt Q9NY57, sequence (whole entry, looked up): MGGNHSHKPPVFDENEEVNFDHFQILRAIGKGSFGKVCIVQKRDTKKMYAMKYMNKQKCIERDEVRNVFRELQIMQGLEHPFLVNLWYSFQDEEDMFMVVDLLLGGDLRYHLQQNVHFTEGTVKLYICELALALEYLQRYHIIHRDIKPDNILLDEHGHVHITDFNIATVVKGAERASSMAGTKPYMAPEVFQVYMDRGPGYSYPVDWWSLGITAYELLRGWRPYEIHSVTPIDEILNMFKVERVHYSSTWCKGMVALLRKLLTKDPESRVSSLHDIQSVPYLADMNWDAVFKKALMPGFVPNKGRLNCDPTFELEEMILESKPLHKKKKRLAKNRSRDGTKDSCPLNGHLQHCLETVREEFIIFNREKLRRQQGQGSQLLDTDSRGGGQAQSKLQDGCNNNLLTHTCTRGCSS
UniProt Q9HBY8, sequence (whole entry, looked up): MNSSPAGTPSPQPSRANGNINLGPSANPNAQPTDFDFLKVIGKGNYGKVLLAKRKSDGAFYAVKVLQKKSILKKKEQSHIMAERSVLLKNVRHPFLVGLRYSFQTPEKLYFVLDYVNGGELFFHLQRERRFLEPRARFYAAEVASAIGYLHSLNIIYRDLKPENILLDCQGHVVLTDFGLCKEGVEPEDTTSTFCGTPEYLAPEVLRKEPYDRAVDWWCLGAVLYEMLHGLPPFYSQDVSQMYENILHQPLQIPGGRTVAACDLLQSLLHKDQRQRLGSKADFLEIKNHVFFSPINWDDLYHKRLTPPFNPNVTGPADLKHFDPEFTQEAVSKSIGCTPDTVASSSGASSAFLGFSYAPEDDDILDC

Sample 1
SMILES: CC(C)n1cnc(-c2ccc(F)cc2)c1-c1ncc(C(=O)Nc2ccc(N3CCN(C)CC3)cc2)[nH]1
Method: phase 2a trial
Species: idiopathic pulmonary fibrosis patients
| dose | setting | patients with fatigue [%] |
| --- | --- | --- |
| 60 mg once daily | grade 1 emergent event | 0 |
| all arms pooled | grade 5 emergent event | 0 |
| 30 mg once daily | grade 2 emergent event | 0 |
| all arms pooled | grade 3 emergent event | 0 |
| 60 mg once daily | grade 2 emergent event | 0 |
| 30 mg once daily | grade 5 emergent event | 0 |
| 60 mg once daily | grade 4 emergent event | 0 |
| 30 mg once daily | grade 4 emergent event | 0 |
| 30 mg once daily | grade 3 emergent event | 0 |

Sample 2
Organism: Sarcocystis neurona
Effect on: parasite activity
Concentration: 10 µM
Time: 96 h
| Structure (SMILES) | activity class |
| --- | --- |
| Cc1nc2n(c(=O)c1CCN1CCC(c3noc4cc(F)ccc34)CC1)CCCC2 | inactive |
| Cc1c2oc3c(C)ccc(C(=O)N[C@@H]4C(=O)N[C@H](C(C)C)C(=O)N5CCC[C@H]5C(=O)N(C)CC(=O)N(C)[C@@H](C(C)C)C(=O)O[C@@H]4C)c3nc-2c(C(=O)N[C@@H]2C(=O)N[C@H](C(C)C)C(=O)N3CCC[C@H]3C(=O)N(C)CC(=O)N(C)[C@@H](C(C)C)C(=O)O[C@@H]2C)c(N)c1=O | inactive |
| S=c1[nH]cnc2nc[nH]c12 | inactive |
| CCCc1nc(C(C)(C)O)c(C(=O)OCc2oc(=O)oc2C)n1Cc1ccc(-c2ccccc2-c2nnn[nH]2)cc1 | inactive |
| O=C(CCCN1CC=C(n2c(=O)[nH]c3ccccc32)CC1)c1ccc(F)cc1 | inactive |
| Cc1ccc(C)c(OCCCC(C)(C)C(=O)O)c1 | inactive |
| CN(C)[C@@H]1C(O)=C(C(=O)NCN2CCCC2)C(=O)[C@@]2(O)C(O)=C3C(=O)c4c(O)cccc4[C@@](C)(O)[C@H]3C[C@@H]12 | inactive |
| COc1cc(C)nc(-n2nc(C)cc2OC)n1 | inactive |
| CCC(=O)OCC(=O)[C@@]1(OC(=O)CC)[C@@H](C)C[C@H]2[C@@H]3CCC4=CC(=O)C=C[C@]4(C)[C@@]3(Cl)[C@@H](O)C[C@@]21C | inactive |
| CC(=O)Nc1ccc(CC(=O)O)cc1 | inactive |
| Cc1ncc([N+](=O)[O-])n1CC(O)CCl (stereo not shown) | inactive |

Sample 3
SMILES: O=C(O)[C@H]1[C@H](Cn2nnc3ccccc3c2=O)CC[C@@H]1C(=O)c1ccc(OCCC2CCOCC2)cc1
Method: competition with immobilised ligand
Concentration: 1 µM
| target | effect on | remaining binding [%] |
| --- | --- | --- |
| Serine/threonine-protein kinase Sgk2 (SGK2, Homo sapiens, UniProt Q9HBY8) | cell-free assay | 92 |
| Mast/stem cell growth factor receptor Kit (KIT, Homo sapiens, UniProt P10721, V559D) | cell-free assay | 100 |
| Phosphatidylinositol 4,5-bisphosphate 3-kinase catalytic subunit alpha isoform (PIK3CA, Homo sapiens, UniProt P42336, I800L) | cell-free assay | 73 |
| NUAK family SNF1-like kinase 1 (NUAK1, Homo sapiens, UniProt O60285) | cell-free assay | 71 |
| Epidermal growth factor receptor (EGFR, Homo sapiens, UniProt P00533, G719C) | cell-free assay | 81 |
| Serine/threonine-protein kinase pim-2 (PIM2, Homo sapiens, UniProt Q9P1W9) | cell-free assay | 96 |
| Phosphatidylinositol 3-kinase C2 domain-containing subunit gamma (PIK3C2G, Homo sapiens, UniProt O75747) | cell-free assay | 99 |
| Homeodomain-interacting protein kinase 1 (HIPK1, Homo sapiens, UniProt Q86Z02) | cell-free assay | 100 |
| Serine/threonine-protein kinase 32B (STK32B, Homo sapiens, UniProt Q9NY57) | cell-free assay | 100 |
| Tyrosine-protein kinase ABL2 (ABL2, Homo sapiens, UniProt P42684) | cell-free assay | 99 |
| STE20/SPS1-related proline-alanine-rich protein kinase (STK39, Homo sapiens, UniProt Q9UEW8) | cell-free assay | 95 |
| Proto-oncogene tyrosine-protein kinase receptor Ret (RET, Homo sapiens, UniProt P07949, V804M) | cell-free assay | 96 |
| Activin receptor type-2B (ACVR2B, Homo sapiens, UniProt Q13705) | binding | 79 |
| Serine/threonine-protein kinase D1 (PRKD1, Homo sapiens, UniProt Q15139) | cell-free assay | 85 |
| Ribosomal protein S6 kinase alpha-1, C-terminal kinase domain (RPS6KA1, Homo sapiens, UniProt Q15418) | cell-free assay | 95 |

Sample 4
Target: DNA polymerase theta, ATPase domain (POLQ, Homo sapiens, UniProt O75417)
UniProt O75417, sequence (whole entry, unmodified, looked up): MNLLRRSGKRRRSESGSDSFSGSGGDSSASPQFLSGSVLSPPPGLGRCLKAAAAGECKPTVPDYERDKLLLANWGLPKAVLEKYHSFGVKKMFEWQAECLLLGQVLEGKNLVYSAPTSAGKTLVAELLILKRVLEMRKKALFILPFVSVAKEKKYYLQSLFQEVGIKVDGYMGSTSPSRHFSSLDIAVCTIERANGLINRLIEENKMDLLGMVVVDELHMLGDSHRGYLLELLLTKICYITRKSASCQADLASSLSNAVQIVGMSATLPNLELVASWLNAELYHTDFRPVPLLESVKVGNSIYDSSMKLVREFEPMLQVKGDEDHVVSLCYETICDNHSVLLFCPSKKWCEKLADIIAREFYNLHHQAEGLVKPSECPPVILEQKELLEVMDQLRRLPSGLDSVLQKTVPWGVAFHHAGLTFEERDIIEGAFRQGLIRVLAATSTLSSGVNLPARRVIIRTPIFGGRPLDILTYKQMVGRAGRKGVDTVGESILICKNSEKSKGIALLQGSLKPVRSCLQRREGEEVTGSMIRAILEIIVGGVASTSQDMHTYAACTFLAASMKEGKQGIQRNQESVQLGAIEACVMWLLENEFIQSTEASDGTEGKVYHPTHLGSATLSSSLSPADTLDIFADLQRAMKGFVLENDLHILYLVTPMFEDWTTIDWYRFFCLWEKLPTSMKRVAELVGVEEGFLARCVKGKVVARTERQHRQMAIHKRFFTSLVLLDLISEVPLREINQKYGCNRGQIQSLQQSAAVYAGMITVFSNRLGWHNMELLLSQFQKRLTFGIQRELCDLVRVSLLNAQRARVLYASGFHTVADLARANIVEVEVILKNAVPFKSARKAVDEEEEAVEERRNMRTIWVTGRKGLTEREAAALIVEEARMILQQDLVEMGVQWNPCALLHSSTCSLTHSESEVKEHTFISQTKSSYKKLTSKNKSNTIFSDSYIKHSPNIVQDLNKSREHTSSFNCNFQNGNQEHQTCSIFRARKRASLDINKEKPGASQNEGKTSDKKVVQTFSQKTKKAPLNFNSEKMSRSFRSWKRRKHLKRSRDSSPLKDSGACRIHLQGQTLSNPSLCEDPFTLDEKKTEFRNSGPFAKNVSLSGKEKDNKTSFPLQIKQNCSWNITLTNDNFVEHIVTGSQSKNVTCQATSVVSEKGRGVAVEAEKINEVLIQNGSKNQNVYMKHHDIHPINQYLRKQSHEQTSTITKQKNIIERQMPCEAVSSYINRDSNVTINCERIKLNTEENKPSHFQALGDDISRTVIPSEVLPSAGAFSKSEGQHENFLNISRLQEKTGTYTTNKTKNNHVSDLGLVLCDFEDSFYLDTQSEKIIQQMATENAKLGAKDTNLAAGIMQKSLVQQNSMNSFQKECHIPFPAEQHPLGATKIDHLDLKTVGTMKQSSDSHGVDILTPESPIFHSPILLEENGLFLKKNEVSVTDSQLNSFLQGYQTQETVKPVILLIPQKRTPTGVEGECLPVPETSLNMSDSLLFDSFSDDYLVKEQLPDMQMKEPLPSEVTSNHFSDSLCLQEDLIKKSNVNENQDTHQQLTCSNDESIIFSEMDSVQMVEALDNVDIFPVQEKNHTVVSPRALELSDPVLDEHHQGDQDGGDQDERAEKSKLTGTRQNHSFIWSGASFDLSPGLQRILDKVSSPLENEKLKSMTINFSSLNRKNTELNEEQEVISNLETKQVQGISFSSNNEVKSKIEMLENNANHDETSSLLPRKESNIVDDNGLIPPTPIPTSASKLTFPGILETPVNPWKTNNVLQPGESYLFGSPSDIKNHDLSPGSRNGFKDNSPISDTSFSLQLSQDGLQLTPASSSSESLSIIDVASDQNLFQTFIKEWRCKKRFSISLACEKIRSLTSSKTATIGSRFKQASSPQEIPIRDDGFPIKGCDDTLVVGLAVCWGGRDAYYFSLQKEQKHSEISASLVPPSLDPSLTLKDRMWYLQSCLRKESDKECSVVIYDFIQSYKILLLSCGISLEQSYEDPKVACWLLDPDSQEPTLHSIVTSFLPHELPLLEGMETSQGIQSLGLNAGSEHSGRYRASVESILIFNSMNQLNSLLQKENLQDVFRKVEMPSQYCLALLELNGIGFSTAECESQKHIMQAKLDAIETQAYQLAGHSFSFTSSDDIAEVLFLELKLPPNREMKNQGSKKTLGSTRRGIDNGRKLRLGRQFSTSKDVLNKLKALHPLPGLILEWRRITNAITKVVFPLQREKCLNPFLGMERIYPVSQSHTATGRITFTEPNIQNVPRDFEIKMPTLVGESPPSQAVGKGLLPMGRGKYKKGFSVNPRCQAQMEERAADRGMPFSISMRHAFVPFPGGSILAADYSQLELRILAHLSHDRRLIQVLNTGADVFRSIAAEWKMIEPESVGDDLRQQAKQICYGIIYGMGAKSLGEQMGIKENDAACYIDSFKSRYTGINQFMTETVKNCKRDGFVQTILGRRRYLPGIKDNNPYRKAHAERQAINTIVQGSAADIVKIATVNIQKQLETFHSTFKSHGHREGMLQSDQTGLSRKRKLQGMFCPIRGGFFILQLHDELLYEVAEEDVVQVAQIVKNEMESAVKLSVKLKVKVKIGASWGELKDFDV
Effect on: enzyme activity
Mode: inhibitor
Concentration: 77 µM
Baseline: untreated
| Structure (SMILES) | remaining activity |
| --- | --- |
| CC[C@H](C)C(=O)O[C@H]1C[C@@H](C)C=C2C=C[C@H](C)[C@H](CC[C@@H]3C[C@@H](O)CC(=O)O3)[C@H]21 | 101% and 98.2% |
| O=C1CCC[C@@H]2[C@H]3CCC[N+]4([O-])CCC[C@@H](CN12)[C@@H]34 (stereo partly shown) | 96% |
| COc1c(C)c2c(c(O)c1C/C=C(\C)CCC(=O)O)C(=O)OC2 | 93.1% and 91.4% |
| N=C(N)c1ccccc1 | 99.5% |
| NC(=O)Nc1sc(-c2ccccc2)cc1C(N)=O | 117% |
| NS(=O)(=O)c1cc2c(cc1C(F)(F)F)NCNS2(=O)=O | 100% |
| NCCS(=O)O | 112% |
| COC(=O)C1=CO[C@@H](C)[C@H]2CN3CCc4c([nH]c5ccccc45)[C@@H]3C[C@H]12 | 101% |
| CCCCCCCCCCCC[N+](C)(C)CCOc1ccccc1 | 94.3% |
| CC1CC(OC(=O)c2ccccc2O)CC(C)(C)C1 (stereo not shown) | 102% |
| O=C(O)c1cc2cccc([N+](=O)[O-])c2[nH]1 | 95.5% |
| Cc1ccc([C@@H]2O[C@H](CO)[C@@H](O)[C@H](O)[C@H]2O)cc1Cc1ccc(-c2ccc(F)cc2)s1 | 94.3% |
| Cn1cc(-c2cnn3c(N)c(Br)c([C@@H]4CCCNC4)nc23)cn1 | 94.9% |
| Nc1[nH]nc2nnc(-c3c(-c4ccccc4)nn4ccccc34)cc12 | 105% |

For quick reference, copied from above (sample 3):
| target | effect on | remaining binding [%] |
| --- | --- | --- |
| Serine/threonine-protein kinase 32B (STK32B, Homo sapiens, UniProt Q9NY57) | cell-free assay | 100 |
| Tyrosine-protein kinase ABL2 (ABL2, Homo sapiens, UniProt P42684) | cell-free assay | 99 |
| STE20/SPS1-related proline-alanine-rich protein kinase (STK39, Homo sapiens, UniProt Q9UEW8) | cell-free assay | 95 |
